Measured values collected from several papers.
± gives the spread as reported.

| SMILES | tested on | assay | system | setting | endpoint | result |
| --- | --- | --- | --- | --- | --- | --- |
| CC(C)(C)c1ccc(S(=O)(=O)/C=C/C#N)cc1 | Toxoplasma gondii | parasite growth, luciferase reporter | HFF, tachyzoite | 72 h | EC90 | 37600 nM |
| COc1cc2c(Nc3ccc(Br)cc3F)ncnc2cc1OCC1CCN(C)CC1 | TT (RET C634W) | cell growth, CellTiter-Glo | – | 72 h | GI50 | 1010 nM |
| O=C(/C=C/C=C/C=C/C1CCCCC1)NC1=C[C@@](O)(/C=C/C=C/C=C/C(=O)NC2=C(O)CCC2=O)[C@@H]2O[C@@H]2C1=O | COV362 | cell growth, CellTiter-Glo | – | 78 h | GI50 | 14600 nM |
| Cc1cn(-c2cc(NC(=O)c3ccc(C)c(Nc4nccc(-c5cccnc5)n4)c3)cc(C(F)(F)F)c2)cn1 | KCL-22 KCL22-T315I | – | – | 48 h | GI50 | 2730 ± 1570 nM |
| COc1ccc(-c2ccc(-c3ccc(C(=N)N)nc3)s2)cc1Cl | MDA-MB-231/ATCC | NCI five-dose screen | – | – | GI50 | 1700 nM |
| C#C[C@@]1(O)[C@@H](CO)O[C@@H](n2ccc3c(N)ncnc32)[C@@H]1O | NCI60 panel | cell growth | – | mean over panel | GI50 | -5.9 log M |
| Cc1ccc(C(=O)Nc2ccc(CN3CCN(C)CC3)c(C(F)(F)F)c2)cc1C#Cc1cnc2cccnn12 | KCL-22 wild type | – | – | 48 h | GI50 | 0.008 ± 0.2 nM |
| Cc1c(C(=O)O)ccc2c3n(nc12)[C@@H]1[C@H](C3)N(CC2CC2)[C@@]2(C(=O)Nc3cc(Cl)ccc32)[C@H]1c1cccc(Cl)c1F | well-differentiated liposarcoma cells | alamarBlue | – | unbound concentration | GI50 | 0.14 nM |
| O=C(/C=C/c1ccc(O)c(O)c1)OCCc1ccccc1 | Toxoplasma gondii | parasite growth, luciferase reporter | HFF, tachyzoite | 72 h | EC50 | 24500 nM |
| [Cl-].[Cl-].[Os+2].c1cnc2c(c1)ccc1cccnc12.c1cnc2c(c1)ccc1cccnc12.c1cnc2c(c1)ccc1cccnc12 | SK-MEL-28 | cell growth, sulforhodamine B | – | green light, hypoxia 1% O2 | GI50 | 144000 nM |

Some of these lines once more:
| SMILES | tested on | assay | system | setting | endpoint | result |
| --- | --- | --- | --- | --- | --- | --- |
| [Cl-].[Cl-].[Os+2].c1cnc2c(c1)ccc1cccnc12.c1cnc2c(c1)ccc1cccnc12.c1cnc2c(c1)ccc1cccnc12 | SK-MEL-28 | cell growth, sulforhodamine B | – | green light, hypoxia 1% O2 | GI50 | 144000 nM |
